Assay results gathered from unrelated publications.
Each numbered part is a random draw from the data of one study; scales do not carry over between parts. Changes are numbered by the printed parent chain.

Block 1
Target: RNA binding protein fox-1 homolog 2, RRM domain, GST-SBP tag (RBFOX2, Homo sapiens, UniProt O43251-10, residues 100-194)
Method: RNA Bind-n-Seq
Form: RNA
Sample: in vitro
Concentration: 365 nM
Setting: natural RNA segment, single round, ends assumed
Reference: no-protein control
Direction: higher = stronger binding
Residues (chain): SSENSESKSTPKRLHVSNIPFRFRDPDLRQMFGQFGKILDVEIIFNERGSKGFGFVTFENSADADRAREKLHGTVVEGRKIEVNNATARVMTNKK
| Strand | RBNS enrichment (R) |
| --- | --- |
| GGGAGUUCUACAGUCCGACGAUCCAGCUGUUCACACAAGGGGGCAGGAGCUCUGGUGGGUGUGCAGCCAUGUGGUCACAGCCUGCCAGCAGCAAGACACCUGGGUCCACCACACCUCAGUGGAAGUAGCAGAAUGGAAUUCUCGGGUGCCAA | 0.37 |
| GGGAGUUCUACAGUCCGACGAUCAGUGUGAGCGAGAGUGUGUGUGUGUCCAUCUAAGUGUGUGUGAUGAAGGUGGGAUAAGGCUCCUCUGUUAGUGCUGGAAGCUCCUGUAAUUGCCGCAUGGAUCCCACUGUUGGAAUUCUCGGGUGCCAA | 7.14 |
| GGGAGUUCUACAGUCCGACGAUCCAACAUCACUGCCCUUGGACGAGACUCAGUGGAAGACACUUCCCCUCGGACCCGUUCCCAGGAGGUGCAGGGGCCCAGCAAUAAACGGCGAAAGGGGCCUUGGCUCUUGCUGGAAUUCUCGGGUGCCAA | 0.259 |
| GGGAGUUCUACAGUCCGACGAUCCAAACUAAGCACUGUCACUUUCCUUUCUGAACCAUCUCAGCCAAAAAGGCCACCAUGAGGACAUCUCACCAACCUGUGCUCAGCAUGAACUGUGACAUCAGCCUUUGAUAUGGAAUUCUCGGGUGCCAA | 2.22 |
| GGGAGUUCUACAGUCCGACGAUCGAAAGGAAGUGAAAGGUAAAUAGUCACCUACGGUCCUAGGAACCAUGCCUGCCACCUAACCACCUACCUGCCUUAGGCCAUAGCCUGGCCUGUGCCCCUAAACACUACAUUGGAAUUCUCGGGUGCCAA | 0.941 |
| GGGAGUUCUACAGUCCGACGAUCAUUUACGCAUGAUAUUUUCCUAAGUAAAAUUGCCAAGUGGACUUGGAAGUCCAGAAAGGAAAAUAAUUUAAAUUAAUGCUGGUGAUCUUAACAAUAUUUUGUAAAAUGAUUGGAAUUCUCGGGUGCCAA | 0.875 |
| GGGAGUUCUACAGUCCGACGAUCAUUUUGAUGCCUUUGAAAUGAUGAAGGGAUUCUACCUGUAUUUUUACUCUUAGAACAGAUACAACUUUAAAGGGUGUCACAACCAAAGGUGGAGUGGAGUGUGGCAUGCAUGGAAUUCUCGGGUGCCAA | 3.22 |
| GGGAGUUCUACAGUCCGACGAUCUACUCUGUUUUAACAUAUUCCUGGUGGACUAUAUCAACCUUUUGUGCCCUGAAAACUUGAAGGUUAACCCAAACUGUCAAGAUUUAGGAUAGUCAAGAAAAGGUUUAACUUGGAAUUCUCGGGUGCCAA | 0.303 |

Block 2
Target: UBE2G1 UBC core domain (UniProt P62253)
Method: yeast two-hybrid
Sample: yeast
Setting: mostly zero background
Reference: not given
Direction: higher = stronger interaction
B1: RNF6 RING domain (UniProt Q9Y252); chain NSIDSELGKICSVCISDYVTGNKLRQLPCMHEFHIHCIDRWLSENCTCPICRQPVLGSNIAN
B2: RING1 RING domain (UniProt Q06587); chain SPRSLHSELMCPICLDMLKNTMTTKECLHRFCSDCIVTALRSGNKECPTCRKKLVSKRSLR
B3: CNOT4 RING domain (UniProt O95628); chain MSRSPDAKEDPVECPLCMEPLEIDDINFFPCTCGYQICRFCWHRIRTDENGLCPACRKPYPED
B4: HLTF RING domain (UniProt Q14527); chain LILSSGSDEECAICLDSLTVPVITHCAHVFCKPCICQVIQNEQPHAKCPLCRNDIHEDNLLE
B5: ZNRF4 RING domain (UniProt Q8WWF5); chain VRTFTWHNDLCAICLDEYEEGDQLKILPCSHTYHCKCIDPWFSQAPRRSCPVCKQSVAATEDSF
Residues (chain): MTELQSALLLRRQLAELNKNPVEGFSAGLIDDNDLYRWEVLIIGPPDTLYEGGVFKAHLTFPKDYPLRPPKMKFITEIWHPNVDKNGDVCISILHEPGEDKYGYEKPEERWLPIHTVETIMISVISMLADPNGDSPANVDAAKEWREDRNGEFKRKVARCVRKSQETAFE
| Molecule | lacZ reporter activity |
| --- | --- |
| B1 (RNF6 RING domain) | 0 |
| LVKDFNPYITCYICKGYLIKPTTVTECLHTFCKTCIVQHFEDSNDCPRCGNQVHETNPLE (PCGF5 RING domain (UniProt Q86SE9)) | 0 |
| B2 (RING1 RING domain) | 0 |
| B3 (CNOT4 RING domain) | 0 |
| B4 (HLTF RING domain) | 0 |
| LEALSSDFLACKICLEQLRAPKTLPCLHTYCQDCLAQLADGGRVRCPECRETVPVPPEGV (TRIM56 RING domain (UniProt Q9BRZ2)) | 0 |
| B5 (ZNRF4 RING domain) | 0 |

Block 3
Target: Sal-like protein 4, full length isoform A (SALL4, Homo sapiens, UniProt Q9UJQ4, residues 1-1053)
Sequence of UniProt Q9UJQ4 (whole entry, looked up): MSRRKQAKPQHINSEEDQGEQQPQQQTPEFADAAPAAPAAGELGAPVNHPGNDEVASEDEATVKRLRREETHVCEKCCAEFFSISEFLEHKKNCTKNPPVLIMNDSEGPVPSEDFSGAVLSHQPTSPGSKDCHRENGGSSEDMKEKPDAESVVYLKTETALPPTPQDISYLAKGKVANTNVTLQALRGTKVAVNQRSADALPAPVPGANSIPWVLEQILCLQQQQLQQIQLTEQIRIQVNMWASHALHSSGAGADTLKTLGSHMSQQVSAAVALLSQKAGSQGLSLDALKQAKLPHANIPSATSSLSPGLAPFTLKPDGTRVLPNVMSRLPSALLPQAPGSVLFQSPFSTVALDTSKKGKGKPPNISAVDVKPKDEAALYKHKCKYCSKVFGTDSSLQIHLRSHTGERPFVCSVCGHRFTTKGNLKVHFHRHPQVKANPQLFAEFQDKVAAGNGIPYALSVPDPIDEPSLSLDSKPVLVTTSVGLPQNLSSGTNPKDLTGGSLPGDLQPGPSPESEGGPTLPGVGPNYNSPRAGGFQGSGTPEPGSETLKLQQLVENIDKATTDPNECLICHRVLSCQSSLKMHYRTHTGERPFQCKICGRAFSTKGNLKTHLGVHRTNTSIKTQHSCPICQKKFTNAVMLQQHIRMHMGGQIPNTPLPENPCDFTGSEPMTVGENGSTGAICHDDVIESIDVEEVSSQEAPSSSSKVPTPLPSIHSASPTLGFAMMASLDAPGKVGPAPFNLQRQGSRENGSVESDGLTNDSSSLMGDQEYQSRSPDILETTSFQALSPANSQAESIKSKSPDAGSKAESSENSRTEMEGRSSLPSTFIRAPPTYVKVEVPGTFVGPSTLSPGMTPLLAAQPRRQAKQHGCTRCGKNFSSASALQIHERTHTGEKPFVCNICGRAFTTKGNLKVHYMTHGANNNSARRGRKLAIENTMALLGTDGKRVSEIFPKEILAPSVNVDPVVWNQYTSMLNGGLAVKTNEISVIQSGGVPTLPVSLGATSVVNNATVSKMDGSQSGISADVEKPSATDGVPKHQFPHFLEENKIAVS
Method: universal PBM
Form: double-stranded DNA, one strand shown
Sample: in vitro
Concentration: 600 nM
Setting: 8-mer, flanks averaged, mean of replicates
Direction: higher = stronger binding
| Strand | E-score |
| --- | --- |
| AATTGCAC | 0.0746 |
| CGCCTTAC | -0.0604 |
| ATGAAACC | 0.136 |
| CCCTGAAC | -0.0367 |
| AATACAAT | 0.309 |
| AGCTAATA | 0.204 |
| AGGATTTA | 0.201 |
| GAAGACGC | -0.138 |
| ACTATTTC | 0.255 |
| TATGTCGA | 0.189 |
| CCCGTCGG | -0.372 |
| CCAGCGTA | -0.093 |
| CATGACCC | -0.183 |
| AATCTTAA | 0.214 |
| CTGGACAC | -0.264 |
| CCTACAGG | -0.238 |
| AACTGAGA | 0.0973 |
| AAACTTGA | 0.108 |
| AACTCGAG | -0.0544 |
| AGGCCTTA | -0.156 |

Block 4
Target: Interferon regulatory factor 7, full length, phosphomimetic (IRF7, Homo sapiens, UniProt Q92985, residues 1-503, S471D/S472D/S475D/S476D/S477D/S483D/S484D/S487D)
Method: protein-binding microarray
Form: double-stranded DNA, one strand shown
Sample: in vitro
Concentration: 2200 nM top
Setting: 60-bp whole probe
Together with: salmon DNA 0.4 mg/ml
Reference: random background probes
Direction: higher = stronger binding
All sequences stand within: GCCTAGCAC … GTCTTGATTCGCTTGACGCTGCTG
Construct (chain): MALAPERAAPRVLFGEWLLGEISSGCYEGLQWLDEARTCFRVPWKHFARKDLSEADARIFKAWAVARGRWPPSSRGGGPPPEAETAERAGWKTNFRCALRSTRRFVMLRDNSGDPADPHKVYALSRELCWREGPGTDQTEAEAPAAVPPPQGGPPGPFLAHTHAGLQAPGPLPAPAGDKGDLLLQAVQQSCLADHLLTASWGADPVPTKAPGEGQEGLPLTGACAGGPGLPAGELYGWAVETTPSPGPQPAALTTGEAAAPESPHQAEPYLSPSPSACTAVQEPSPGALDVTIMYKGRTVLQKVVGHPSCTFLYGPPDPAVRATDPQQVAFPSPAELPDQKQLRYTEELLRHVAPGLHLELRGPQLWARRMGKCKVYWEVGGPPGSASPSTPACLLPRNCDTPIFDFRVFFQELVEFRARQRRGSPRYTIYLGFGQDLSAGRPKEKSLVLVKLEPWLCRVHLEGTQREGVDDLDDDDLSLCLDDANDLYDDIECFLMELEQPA
| Strand | fitted relative affinity [z-score] |
| --- | --- |
| GACGGACTGGACTACCGGGACGTGCTA | -0.987 |
| GACGGACTCCTTTTCCTGACGTGCTAG | 1.26 |
| TTAGGTTGCCTTCTCCTTTAGTGCTAG | 0.998 |
| TTAGGACTGGGTGTCGGTTAGTGCTAG | -0.326 |
| TCAACACTCGGTTTCCAACTGTGCTAG | 4.26 |
| TTTTTTTTTTTTCTGATCCAGTGCTAG | 2.84 |
| TTAGATATTAGACTGGATTAGTGCTAG | -0.442 |
| CTTGCTACACATCTCACTCTGTGCTAG | 1.44 |
| TCACATATCGGGGTGCGCACTGTGCTA | 0.585 |
| GACGGATTGGGGTATCGGGACGTGCTA | -0.122 |
| TTAGGTATCCGACTGGGTTAGTGCTAG | -0.188 |
| TTAGGTTTCGGGTTGCGGTTAGTGCTA | 11.6 |
| TACGATATCAGTCTCGAGACGTGCTAG | 0.576 |
| GACGGACTGGGGTATCGGGACGTGCTA | -0.849 |
| TTAGATCTCAGTTTCGACTAGTGCTAG | 3.05 |
| TTAGATTTCCGGTATCGATTAGTGCTA | 1.4 |
| GACGTTCTCCTACTGCTGACGTGCTAG | 1.42 |
| TTAGATTTCGGGTAACGATTAGTGCTA | 1.8 |
| TTAGGTATCGGTATCGATTAGTGCTAG | 0.595 |

Block 5
Target: CCND1, cyclin fold, Cln2 fusion (human)
Method: yeast growth competition, sequencing
Sample: yeast
Setting: weak parent motif
Reference: not given
Direction: higher = stronger binding
Starting sequence: MICAL3 docking peptide (human); LQLRRQLSFSEDS
| Change | normalised enrichment score |
| --- | --- |
| LQLSRQLSFSEDS [R4S] | 0.677 |
| LQLRRQFSFSEDS [L7F] | -0.179 |
| LQLIRQLSFSEDS [R4I] | 0.439 |
| LQLRRQLSFSIDS [E11I] | -0.354 |
| LQLRKQLSFSEDS [R5K] | 0.13 |
| LQLRRQLSFSESS [D12S] | 0.0425 |
| LQHRRQLSFSEDS [L3H] | -0.143 |
| LQLRRSLSFSEDS [Q6S] | 0.706 |
| LQLRRFLSFSEDS [Q6F] | -0.166 |
| LQLRRQHSFSEDS [L7H] | 0.124 |
| LQLRRQRSFSEDS [L7R] | -0.134 |
| LQTRRQLSFSEDS [L3T] | 1.57 |
| LQLRRQLSFLEDS [S10L] | 0.233 |
| LQLRRQLSVSEDS [F9V] | -0.229 |
| LQLRRQLSFSENS [D12N] | 0.646 |
| LQLRRQLRFSEDS [S8R] | -0.424 |
| LQLRHQLSFSEDS [R5H] | -0.301 |
| LQLRRQLSNSEDS [F9N] | -0.135 |
| LQLRAQLSFSEDS [R5A] | 0.0292 |
| LQLRRQLSFSEIS [D12I] | 1.03 |
| LQLRRQLSGSEDS [F9G] | -0.109 |
| LKLRRQLSFSEDS [Q2K] | 0.286 |
| LQLRRVLSFSEDS [Q6V] | 0.676 |

A few entries again (block 4):
| Strand | fitted relative affinity [z-score] |
| --- | --- |
| TTAGGTTGCCTTCTCCTTTAGTGCTAG | 0.998 |
| TTAGGACTGGGTGTCGGTTAGTGCTAG | -0.326 |
| TCAACACTCGGTTTCCAACTGTGCTAG | 4.26 |
| TTTTTTTTTTTTCTGATCCAGTGCTAG | 2.84 |
| TTAGATATTAGACTGGATTAGTGCTAG | -0.442 |
| CTTGCTACACATCTCACTCTGTGCTAG | 1.44 |
